Results gathered from unrelated publications.
Parts stem from different laboratories: compare values within a part only. Changes are numbered by the printed parent chain.

Block 1
Target: CCNB2, cyclin fold, Cln2 fusion (human)
Technique: yeast growth competition, sequencing
Sample: yeast
Setting: strong parent motif
Baseline: not given
Reading: higher = stronger binding
Parent: PKMYT1 docking peptide (human); SFEPRNLLSLFED
Substitution | normalised enrichment score
SFEPRNLLGLFED [S9G] | 0.825
SFEPRNLLSLFKD [E12K] | -0.194
SFEPRNLLSLWED [F11W] | 0.0412
SFEPRNLLSLEED [F11E] | -0.203
SREPRNLLSLFED [F2R] | 0.233
SFEPRNLLELFED [S9E] | 1.33
FFEPRNLLSLFED [S1F] | 1.54
SFEPRNLLSLFTD [E12T] | 0.375
SFEARNLLSLFED [P4A] | 0.795
SSEPRNLLSLFED [F2S] | -0.284
SFEPRKLLSLFED [N6K] | 0.171
SFEPRNLLSLVED [F11V] | -0.485
SFEPRNLLSWFED [L10W] | 1.15
SFEPRNLISLFED [L8I] | 1.05
SFEPRNLESLFED [L8E] | -1.74
SFWPRNLLSLFED [E3W] | 0.931
KFEPRNLLSLFED [S1K] | 0.851
SFKPRNLLSLFED [E3K] | 1.5
SFEPRNLGSLFED [L8G] | -0.41
TFEPRNLLSLFED [S1T] | 1.26
SFEPRNLLSAFED [L10A] | 1.63
GFEPRNLLSLFED [S1G] | 1.55
SFEPRNLLSLAED [F11A] | -0.32

Block 2
Target: Fragile X messenger ribonucleoprotein 1, C-terminal low-complexity region (Fmr1, Mus musculus, UniProt P35922)
Technique: RNA Bind-n-Seq
Molecule type: RNA
Sample: in vitro
Tested at: 200 nM
Setting: whole 134-nt RNA, ends assumed
Added: 150 mM KCl
Baseline: input library
Reading: higher = stronger binding
Shared flanks, not repeated: GGGAGUUCUACAGUCCGACGAUC … UGGAAUUCUCGGGUGUCAAGG
Strand | log2 enrichment
CUCAAGUCCUGUGCUACACAUCGUAUGUACCGAAUCGGGGCCGGGCCGGCCGGGAAAGUAUUAUGUUACGCCGUUCGGAUCUGCACUUCC | -0.0638
AGUCCUGUGCUACACAUCGUAUGUACCGAAUCGGCCCCGGGGCCCCGGGCCCCGGGGAAAGUAUUAUGUUACGCCGUUCGGAUCUGCACU | -0.89
CUCAAGUCCUGUGCUACACAUCGUAUGUACCGAAUCGGGGAAGGGAAGGGAAGGAAAGUAUUAUGUUACGCCGUUCGGAUCUGCACUUCC | 0.0351
CAAGUCCUGUGCUACACAUCGUAUGUACCGAAUCGGGCCCGGGCCCGGGGCCCGGGAAAGUAUUAUGUUACGCCGUUCGGAUCUGCACUU | -0.507
CUCAAGUCCUGUGCUACACAUCGUAUGUACCGAAUCGGGGCGGGCGGGGCGGGAAAGUAUUAUGUUACGCCGUUCGGAUCUGCACUUCCA | 1.42
CACAGACAACACGCACCCCCACAGACACAGAGGGAAGGGGUUGGGAUGGGGACAGGGUGCACAGCAGGGCGGGGUAGGACCCCAGCCCCU | 1.4
ACCAUGCAGGAAAGCAUCUUUGGGAAGUGGGGCAAGGGGGGGAUAGGGAGGGGGGUAACACUUUGGGAACAGGUGGUCCCAGGUCGUUUC | 1.1
GUCCUGUGCUACACAUCGUAUGUACCGAAUCGGGGCCCCCGGGCCCCCGGCCCCCGGGGAAAGUAUUAUGUUACGCCGUUCGGAUCUGCA | -0.565
CACAGACAACACGCACCCACACAGACACAGAGGGAAGGGGUUGGGAUGGGGACAGGGUGCACAGGAGGGCGGGGUAGGACCCCAGCCCCU | 1.15
UCCUGUGCUACACAUCGUAUGUACCGAAUCGGUUUUUUGGUUUUUUGGGGUUUUUUGGGGAAAGUAUUAUGUUACGCCGUUCGGAUCUGC | -0.308

Block 3
Target: CREB3L4, bZIP domain (human)
Technique: DHFR protein complementation
Sample: yeast
Setting: single substitutions, most at no-binding floor
Baseline: wild-type JUN-FOS pair
Reading: higher = stronger binding
Parent: JUN, bZIP domain (human); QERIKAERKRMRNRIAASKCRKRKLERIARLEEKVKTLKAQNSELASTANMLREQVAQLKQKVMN; partner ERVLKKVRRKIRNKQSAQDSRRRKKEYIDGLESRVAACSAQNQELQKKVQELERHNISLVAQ
Substitution | binding fitness
A57E | -1.53 natural log
R53L | -1.59 natural log
A29L | -1.54 natural log
Q41V | -1.51 natural log
K34M | -1.53 natural log
E44W | -1.48 natural log
M51T | -1.52 natural log
Q55G | -1.48 natural log
K39Y | -1.48 natural log
V56G | -1.49 natural log
R30Y | -1.49 natural log
K36E | -1.31 natural log
L52S | -1.52 natural log
K39V | -1.27 natural log
A57Q | -1.52 natural log
A49V | -1.24 natural log
L45E | -1.56 natural log
E54A | -1.21 natural log
A40F | -1.47 natural log

Block 4
Target: Histone acetyltransferase KAT6A, winged helix 2, GST fusion (KAT6A, Homo sapiens, UniProt Q92794, residues 85-181)
Technique: protein binding microarray
Molecule type: double-stranded DNA, one strand shown
Sample: in vitro
Tested at: not given
Setting: 8-mer, flanks averaged, mean of 2 arrays, mostly near background
Baseline: not given
Reading: higher = stronger binding
Residues (chain): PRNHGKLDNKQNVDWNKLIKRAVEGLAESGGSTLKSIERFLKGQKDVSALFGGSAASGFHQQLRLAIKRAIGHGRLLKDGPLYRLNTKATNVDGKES
Strand | E-score
AGACCGCC | 0.0309
ACTTTCTA | -0.067
CGTCAACA | 0.0768
ATTTGGCC | 0.00258
GGAGTGCC | 0.191
CAGGGGAA | 0.0437
GTACCAAA | 0.0052
TCCGCGCA | 0.0267
CGACCACC | -0.0173
AGCTGTTC | -0.0687
CCAGAACG | 0.0983
ATGCCCAC | 0.0796
GCGTCGTA | 0.0377
GAATCTGA | -0.0153
ATTTGTTG | -0.0529
AGTTTGGC | 0.0708
AAGATATA | -0.0466
CACAAATC | -0.0318
CCAGGGCG | 0.188
ACGGTGAC | -0.182
GTGCTACA | -0.15

Block 5
Target: CEP164, C-terminal peptide (human)
Technique: DHFR complementation, deep sequencing
Sample: yeast
Setting: single substitutions, model-inferred values
Baseline: wild type
Reading: higher = weaker binding
Parent: PDZK1, PDZ domain 2 (human); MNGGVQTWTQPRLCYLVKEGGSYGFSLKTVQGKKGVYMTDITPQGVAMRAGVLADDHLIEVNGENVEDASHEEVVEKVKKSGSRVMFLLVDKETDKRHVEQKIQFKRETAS; partner HNRVKVYRF
Substitution | binding free energy change [kcal/mol]
R97D | -0.000364
K96G | -0.0797
N2W | -0.0594
F25E | 1.48
K33E | -0.131
Q10S | 0.0465
A54G | 0.194
N65A | 0.281
C14Q | 1.09
H71A | -0.364
M1C | -0.108
E93K | -0.184
H57V | -0.656
Q44L | 0.191
L89V | 0.12

Further values, each from its own experiment
Molecule | target | assay | test system | setting | scale | measurement | result
PhoQ, residues 284 288 289 292 302 303 SCKMEA | PhoP, residues 12 14 15 18 19 TQALL (Escherichia coli, UniProt P23836) | Sort-seq, item: YFP reporter | E. coli | PhoQ-PhoP variant library, added: 10 µM Mg2+ | baseline: high Mg2+ state, higher = stronger signaling | fold induction | 7.2
